Measured values of several laboratories.
Each line is one published result; not all experiments were run side by side. Numbers after ± are the reported error. In brackets after ≈: the same amount, converted by molar mass.
Organism: Candida albicans

Molecule | assay | test system | conditions | MIC
pneumocandin H | broth microdilution, resazurin | ATCC 10231 | 24 h, 35 °C | 0.8 µg/mL
CCc1nc(N)nc(N)c1C#CC(C)c1ccc(-c2ccc(C)cc2)cc1OC (stereo not drawn) | microbial growth, resazurin | SC5314 | – | 1.8 to 7.5 µg/mL (≈ 4.66 to 19.4 µM)
pneumocandin K | broth microdilution, resazurin | ATCC 90028 | 24 h, 35 °C | 0.2 µg/mL
C/C(=N\NC(=N)N)c1cccc(/C(C)=N/NC(=N)N)c1.Cl.Cl | – | seven strains | – | ≥ 31.3 µg/mL
CCc1nc(N)nc(N)c1C#CC(C)c1ccc(-c2ccc(F)cc2)cc1OC (stereo not drawn) | microbial growth, resazurin | SC5314 | – | 1.8 to 7.5 µg/mL (≈ 4.61 to 19.2 µM)
pneumocandin J | broth microdilution, resazurin | ATCC 10231 | 24 h, 35 °C | 1.6 µg/mL
CCOC(=O)c1c(N)csc1-c1cn(-c2ccccc2)nc1-c1ccc(C)cc1 | broth microdilution | clinical urinary isolate | compound gamma-irradiated 10 kGy | 0.124 ± 0.5 µg/mL (≈ 0.307 µM)
OB(O)O | broth macrodilution | ATCC 10231 | with: zinc borate 9% | 0.0058%
Cl.N=C(N)N/N=C/c1ccc(-c2ccc(/C=N/Nc3ccc(F)cc3F)cc2)cc1 | – | seven strains | – | 1 to 3.9 µg/mL
Cc1cc(C)n(C(N)=S)n1.Cc1ccc(C(C)C)cc1.[Cl][Ru][Cl] | broth microdilution | ATCC 10231 | 24 to 48 h, 37 °C | 250 µg/mL
C[C@@H]1[C@H](O)[C@@H](C)/C=C/C=C/C=C/C=C/C=C/C=C/C=C/[C@H](O[C@@H]2O[C@H](C)[C@@H](O)[C@H](N)[C@@H]2O)C[C@@H]2O[C@](O)(C[C@@H](O)C[C@@H](O)[C@H](O)CC[C@@H](O)C[C@@H](O)CC(=O)O[C@H]1C)C[C@H](O)[C@H]2C(=O)O | – | seven strains | – | 2 to 3.9 µg/mL (≈ 2.16 to 4.22 µM)
pneumocandin B0 | broth microdilution, resazurin | ATCC 90028 | 24 h, 35 °C | 1.6 µg/mL

For quick reference, copied from above:
Molecule | assay | test system | conditions | MIC
CCc1nc(N)nc(N)c1C#CC(C)c1ccc(-c2ccc(F)cc2)cc1OC (stereo not drawn) | microbial growth, resazurin | SC5314 | – | 1.8 to 7.5 µg/mL (≈ 4.61 to 19.2 µM)
pneumocandin J | broth microdilution, resazurin | ATCC 10231 | 24 h, 35 °C | 1.6 µg/mL
